Published values gathered from unrelated publications.
Each line is one published result; not all experiments were run side by side. In brackets after ≈: the same amount, converted by molar mass.

For `NC(=O)c1ncn([C@@H]2O[C@H](CO)[C@@H](O)[C@H]2O)n1`, the EC50 was 10 µM (vesicular stomatitis virus; viral replication; HeLa).
For `CNC(C)Cc1ccc2c(c1)OCO2` (racemic), the mood rating was 17.8 (visual analog scale, refers to: Friendly; human; oral, 1.5 mg/kg, mean over session, unit not given; baseline: pre-dose baseline).
`CCC(=O)Nc1cnc(C(=O)O)cn1` has an IC50 of 3500 µM (Mycobacterium tuberculosis variant bovis BCG; microbial growth; ATCC35734 BCG; 5 days).
For `CN[C@@](C)(C[18F])C(=O)O`, the tracer uptake was 2.5 %ID/g (SK-OV-3 tumour model; host not given, liver; 2 h, tumour-bearing).
`CC(C)c1ccc2c(c1)CC[C@H]1[C@](C)(CN)CCC[C@]21C` gave an IC50 of 1.97 µM (SK-MEL-24; cell growth or viability, MTS; 24 h).
For `CCCCCCCCn1cc(CN2CCC3(CC2)OCCCS3)c2ccc(OC)cc21`, the MIC50 was 0.26 µM (≈ 0.116 µg/mL) (Mycobacterium tuberculosis variant bovis BCG; microbial growth; BCG).
With `S=C=NCc1ccccc1` the IC50 was > 10 µM (influenza virus; viral replication; MDCK; 72 h).
`O=[N+]([O-])NC1=NCCN1Cc1ccc(Cl)nc1` gave a resistance ratio of > 1300 (Bemisia tabaci; leaf-dip bioassay; biotype B; 72 h, adults; baseline: LC50 over susceptible strain).
`CCCc1ncc(C[n+]2ccccc2C)c(N)n1` gave an IC50 of > 10 µM (influenza virus; viral replication; MDCK; 72 h).
For `N=C(N)c1ccc(-c2ccc(-c3cccs3)o2)cc1F`, the inhibition was 109% (Salmonella enterica; sodium azide mutagenicity; TA1535; 20 µM, 48 h, added: sodium azide 2 µg/plate co-exposure).
`CC(=O)N1CCN(c2ccc(OCC3COC(Cn4ccnc4)(c4ccc(Cl)cc4Cl)O3)cc2)CC1` (stereo not drawn) has an IC50 of > 10 µM (influenza virus; viral replication; MDCK; 72 h).
The IC50 of `O=C1CCc2c(OC[C@]3(O)CCN(c4c(F)cc(Cl)cc4F)C[C@H]3O)ccc(F)c2N1` is reported as 17.5 µM (Mycobacteroides abscessus; ATCC 19977; 1:1 CAMHB:human serum).
The tissue/plasma ratio of `[123I]c1cncc(OC[C@@H]2CCN2)c1` is reported as 11.2 (SPECT; human, fusiform gyrus; intravenous bolus, 2.1 mCi; baseline: tissue over plasma).
For `N=C(N)c1ccc(-c2ccc(-c3ccco3)o2)c(F)c1`, the mutant frequency was 29% (Salmonella enterica; TA1535; 20 µM, 48 h, added: sodium azide co-exposure; baseline: sodium azide alone).
`Nc1ccn(C[C@@H](CO)OCP(=O)(O)O)c(=O)n1` gave an EC50 of > 250 µM (vesicular stomatitis virus; viral cytopathic effect; HEL).
The IC50 of `O=C(O)c1ccncc1` is reported as 2700 µM (Mycobacterium tuberculosis variant bovis BCG; microbial growth; ATCC35734 BCG; 5 days).
The MIC90 of `CCCCn1c(C)nc2ccccc21` is reported as 20 µM (≈ 3.77 µg/mL) (Mycobacterium tuberculosis variant bovis BCG; microbial growth; BCG; 5 days).
The IC50 of `O=C(O)c1cnc2ccccc2n1` is reported as 700 µM (Mycobacterium tuberculosis variant bovis BCG; microbial growth; ATCC35734 BCG; 5 days).
The IC50 of `Cc1cnc(NC(=O)C2=C(O)c3ccccc3S(=O)(=O)N2C)s1` is reported as > 10 µM (influenza virus; viral replication; MDCK; 72 h).
With `CCCCCCCCn1c(C)nc2ccccc21` the MIC90 was > 50 µM (Mycobacterium tuberculosis variant bovis BCG; microbial growth; BCG; 5 days).
With `CC(C)CNc1nccnc1C(=O)O` the IC50 was 200 µM (Mycobacterium tuberculosis variant bovis BCG; microbial growth; ATCC35734 BCG; 5 days).

Some of these lines once more:
`CC(=O)N1CCN(c2ccc(OCC3COC(Cn4ccnc4)(c4ccc(Cl)cc4Cl)O3)cc2)CC1` (stereo not drawn) has an IC50 of > 10 µM (influenza virus; viral replication; MDCK; 72 h).
For `N=C(N)c1ccc(-c2ccc(-c3ccco3)o2)c(F)c1`, the mutant frequency was 29% (Salmonella enterica; TA1535; 20 µM, 48 h, added: sodium azide co-exposure; baseline: sodium azide alone).
